Assay results gathered from unrelated publications.
Parts stem from different laboratories: compare values within a part only.

Series 1 — method: RNA Bind-n-Seq; molecule type: RNA; matrix: in vitro; tested at: 365 nM; relative to: no-protein control; reading: higher = stronger binding; measurement: RBNS enrichment (R)
Target: RNA binding protein fox-1 homolog 2, RRM domain, GST-SBP tag (RBFOX2, Homo sapiens, UniProt O43251-10, residues 100-194)
Setting: natural RNA segment, single round, ends assumed
All sequences stand within: GGGAGUUCUACAGUCCGACGAUC … UGGAAUUCUCGGGUGCCAA
Residues (chain): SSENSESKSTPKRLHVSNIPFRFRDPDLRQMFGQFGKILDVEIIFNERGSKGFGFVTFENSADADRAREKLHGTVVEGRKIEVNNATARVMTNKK
CAGGCCAGUGGCAGGUGGACUGGAAGAGGCCUCUCCACUGAGCCUGUGUUCUGUGCUUCAGGCUCUGGAUCAUCACCCCCGCUGCUCUCCCAUUCCGGUACCUAAGUAAC: 0.28
ACAUGUUAAAAAGCAAUUUAAGAUGAAAAAACUAGCUUUACAGUGUGUACACUUUUUCUCUAAAAUAAACUUUUGUGGCUUUAGUGUCUUAGAAGGAGAGUCCUAACAUG: 0.425
UAUGCAAUAUUUCAUCUGUUUAAUUUUCUAACUCUGUAUUGUUCCUAAAGACGGAUGAAUGAGUCUCUGUGGUGUUGCCUGCUCAUUGUGCAUACCCUUGGUAGACAUUU: 0.595
AGUAUUUACACUGGUUUGAUGUUUACAUUGCUCUAACUCGGUGCCUCAGAUACCUCUGUGACCAAAUUUGUCUCCAACCACAUAGCUCAUUUCCUAUAAUGUUAUAUCAU: 0.283
UCAGACACCCUUUGCCUGGAAGCCCACUUGUGUUGCUGCUGUGUUGUGUAUAUAGUAUUCUCGAGAUGAGCGUAUGUGUGUCUGUUUAAAAGUCACCUUGUUUCCUACAU: 5.06
ACCCAGGAUGCUUCACUCUUGACUCCAUGCUCUUCCUUUUAUACCAUGUGGCUGUGAAUACAUACUAUGGGAUGGGAUUCAACCCUUCUAAGUAAAUCCUCAGUCUGGUC: 0.258
AUCAGCCAUUUCUGUUGUGAACUGUAGAAGAUCUUAAAUUGGGAUUGGACUCACUCUCUGUUCCACAAACAUAGAUGUAACCCUCUACCUCUCCUUACCCAACUUAUUAC: 0.465
UUUAACUCCAGAAUAUGGUGAUACAGUUUAUGUUAAGAAACAUAUUUUAAUUUAUUAUGCCAUGAAUUUAUAAACAUUUAAUAUAAAACAUUAUAACAUUUGCUGUUUUA: 1.3

Series 2 — method: Sort-seq; item: YFP reporter; matrix: E. coli; setting: PhoQ-PhoP variant library; together with: 10 µM Mg2+; relative to: high Mg2+ state; reading: higher = stronger signaling; measurement: fold induction
Substance: PhoQ, residues 284 288 289 292 302 303 TLASMF
PhoP, residues 12 14 15 18 19 HHYTI (Escherichia coli, UniProt P23836): 7.52
PhoP, residues 12 14 15 18 19 AYFRS (Escherichia coli, UniProt P23836): 10.1
PhoP, residues 12 14 15 18 19 SFCSL (Escherichia coli, UniProt P23836): 4.08

Series 3 — method: protein-binding microarray; molecule type: double-stranded DNA, one strand shown; matrix: in vitro; tested at: not given; reading: higher = stronger binding; measurement: E-score
Target: Max-binding protein MNT, bHLH-zipper, MAX partner unstated (MNT, Homo sapiens, UniProt Q99583, residues 220-300)
Setting: k-mer, scored over probes, only values ≥0.25
Construct (chain): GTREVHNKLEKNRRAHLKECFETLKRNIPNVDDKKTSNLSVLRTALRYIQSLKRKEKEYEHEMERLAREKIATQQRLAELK
CCCCTCAC: 0.272
ACATGCTG: 0.431
CGCCCACC: 0.281
ACATGTAT: 0.367
ACCCACAC: 0.267
CACGCCAC: 0.368
CCACCCGC: 0.289
CCACCCAC: 0.32
CATGACCC: 0.32
CGCCACGA: 0.25
ATGTGCTA: 0.274
ATGGTCAC: 0.316
ACGTTTTG: 0.255
ACCCACGG: 0.258
GCGCCACC: 0.255
GACATGCC: 0.363
AACATGTG: 0.48
CGTGCTTA: 0.376
AATGCACG: 0.36

Series 4 — method: protein-binding microarray; molecule type: double-stranded DNA, one strand shown; matrix: in vitro; tested at: 2540 nM top; setting: 60-bp whole probe; together with: salmon DNA 0.4 mg/ml; relative to: random background probes; reading: higher = stronger binding; measurement: fitted relative affinity; all sequences stand within: GCCTAGCAC … GTCTTGATTCGCTTGACGCTGCTG
Target: Interferon regulatory factor 3, full length, phosphomimetic (IRF3, Homo sapiens, UniProt Q14653, residues 1-427, S386D/S396D/S398D/S402D/T404D/S405D)
UniProt Q14653, sequence (whole entry, unmodified, looked up): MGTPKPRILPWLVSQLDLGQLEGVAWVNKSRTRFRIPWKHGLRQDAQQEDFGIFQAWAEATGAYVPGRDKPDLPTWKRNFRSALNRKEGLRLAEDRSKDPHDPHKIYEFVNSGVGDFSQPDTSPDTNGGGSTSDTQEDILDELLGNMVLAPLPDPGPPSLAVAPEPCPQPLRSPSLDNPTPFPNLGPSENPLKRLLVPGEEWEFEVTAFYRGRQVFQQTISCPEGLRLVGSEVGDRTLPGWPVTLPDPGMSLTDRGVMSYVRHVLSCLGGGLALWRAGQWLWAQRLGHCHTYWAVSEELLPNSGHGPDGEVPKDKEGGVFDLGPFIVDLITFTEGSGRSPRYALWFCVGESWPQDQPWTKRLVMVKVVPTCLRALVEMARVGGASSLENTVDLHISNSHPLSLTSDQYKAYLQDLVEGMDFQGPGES
TTAGGTATCGACACTGGGTTGGTGCTA: 0.229 z-score
GACGGTTCCGGTTTCGGAACGTGCTAG: 7.9 z-score
TTAGTTTTCGGGTATCGGTTAGTGCTA: 2.71 z-score
TCACACATATAATTTTGTACTGTGCTA: 0.0483 z-score
GACGGGATCGGTCTCGGGACGTGCTAG: 0.984 z-score
ATATATATTATATATACACATGTGCTA: 0.789 z-score
TTATATTTCAGACTGGATTAGTGCTAG: 0.736 z-score
GACGGTATCGGACAGGGGACGTGCTAG: 0.746 z-score
TGTAGCTGGAGAAGTAAAACGTGCTAG: -0.495 z-score
TCACATCTCGGAGATCTCACTGTGCTA: 0.743 z-score
ATAGAACTGGGGTTTCGATTAGTGCTA: 1.63 z-score
GACCGTTTCGGGTTTCGGGACGTGCTA: 5.83 z-score
GACGGACTCGGTCTCGGGACGTGCTAG: 0.00507 z-score
GACGATCGCAGACTGGAGACGTGCTAG: -0.226 z-score

For quick reference, copied from above (series 3):
ACCCACGG: 0.258
GCGCCACC: 0.255
GACATGCC: 0.363
AACATGTG: 0.48
CGTGCTTA: 0.376
